Assay results from different studies.
Each numbered part is a random draw from the data of one study; scales do not carry over between parts. Several values in a cell are separate wells, animals, samples, runs or records.
Chain of UniProt Q9P2K8 (whole entry, unmodified, looked up): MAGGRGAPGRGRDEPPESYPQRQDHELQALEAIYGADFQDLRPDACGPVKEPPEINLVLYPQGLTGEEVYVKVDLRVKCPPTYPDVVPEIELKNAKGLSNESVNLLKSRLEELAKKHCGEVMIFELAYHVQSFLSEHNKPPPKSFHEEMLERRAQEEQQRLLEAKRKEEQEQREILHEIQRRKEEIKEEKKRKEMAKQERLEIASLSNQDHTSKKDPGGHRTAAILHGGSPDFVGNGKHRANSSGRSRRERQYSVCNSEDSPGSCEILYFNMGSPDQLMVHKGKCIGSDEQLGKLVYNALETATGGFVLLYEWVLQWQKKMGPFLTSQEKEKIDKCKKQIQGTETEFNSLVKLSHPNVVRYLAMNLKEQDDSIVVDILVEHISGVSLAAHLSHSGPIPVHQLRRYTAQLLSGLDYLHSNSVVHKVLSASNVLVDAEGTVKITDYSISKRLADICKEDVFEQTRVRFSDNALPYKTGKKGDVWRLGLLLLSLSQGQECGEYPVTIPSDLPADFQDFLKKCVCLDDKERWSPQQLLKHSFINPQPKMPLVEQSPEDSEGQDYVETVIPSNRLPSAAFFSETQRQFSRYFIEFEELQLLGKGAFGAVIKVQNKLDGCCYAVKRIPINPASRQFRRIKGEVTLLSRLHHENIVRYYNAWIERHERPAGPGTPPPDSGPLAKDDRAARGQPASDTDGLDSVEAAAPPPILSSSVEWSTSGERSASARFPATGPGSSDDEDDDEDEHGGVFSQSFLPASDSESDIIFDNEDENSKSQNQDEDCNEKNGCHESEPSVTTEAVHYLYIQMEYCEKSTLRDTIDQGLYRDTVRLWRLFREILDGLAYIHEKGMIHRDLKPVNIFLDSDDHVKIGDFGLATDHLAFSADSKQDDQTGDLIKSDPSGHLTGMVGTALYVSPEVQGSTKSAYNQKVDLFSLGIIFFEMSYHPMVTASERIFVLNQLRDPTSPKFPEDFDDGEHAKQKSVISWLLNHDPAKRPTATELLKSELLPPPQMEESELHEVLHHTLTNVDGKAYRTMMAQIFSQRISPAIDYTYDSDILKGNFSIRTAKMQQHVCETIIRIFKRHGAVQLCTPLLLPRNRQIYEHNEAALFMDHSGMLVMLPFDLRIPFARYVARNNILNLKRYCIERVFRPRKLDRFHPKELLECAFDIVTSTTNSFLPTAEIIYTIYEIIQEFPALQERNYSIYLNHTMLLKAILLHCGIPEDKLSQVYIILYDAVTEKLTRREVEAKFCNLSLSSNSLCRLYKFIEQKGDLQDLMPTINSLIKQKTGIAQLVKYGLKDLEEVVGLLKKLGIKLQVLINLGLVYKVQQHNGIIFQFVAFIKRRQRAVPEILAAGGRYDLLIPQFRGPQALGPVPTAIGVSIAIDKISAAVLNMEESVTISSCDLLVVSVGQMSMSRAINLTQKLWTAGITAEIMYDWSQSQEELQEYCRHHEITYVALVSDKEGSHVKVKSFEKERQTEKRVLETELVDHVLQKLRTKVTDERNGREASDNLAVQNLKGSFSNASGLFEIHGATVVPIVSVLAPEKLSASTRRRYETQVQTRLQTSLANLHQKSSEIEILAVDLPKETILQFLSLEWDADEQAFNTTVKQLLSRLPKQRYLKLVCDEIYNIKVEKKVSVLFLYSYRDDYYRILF
Chain of UniProt P49761 (whole entry, looked up): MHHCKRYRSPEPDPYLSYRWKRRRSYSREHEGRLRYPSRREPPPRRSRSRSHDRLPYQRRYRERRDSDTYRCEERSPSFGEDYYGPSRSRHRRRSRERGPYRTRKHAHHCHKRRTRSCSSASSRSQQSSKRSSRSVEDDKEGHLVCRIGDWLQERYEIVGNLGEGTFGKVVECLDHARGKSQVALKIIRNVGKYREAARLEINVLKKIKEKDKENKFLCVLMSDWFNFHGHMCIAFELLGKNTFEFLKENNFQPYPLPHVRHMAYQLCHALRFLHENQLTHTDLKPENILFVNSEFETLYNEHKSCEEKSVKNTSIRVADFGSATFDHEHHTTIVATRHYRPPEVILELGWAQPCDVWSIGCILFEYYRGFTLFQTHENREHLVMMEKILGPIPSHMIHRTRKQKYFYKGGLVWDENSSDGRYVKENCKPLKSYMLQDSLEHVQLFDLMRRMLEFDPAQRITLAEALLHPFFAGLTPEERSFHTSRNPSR

Set 1
Target: Mitogen-activated protein kinase 8 (MAPK8, Homo sapiens, UniProt P45983)
Chain of UniProt P45983 (whole entry, looked up): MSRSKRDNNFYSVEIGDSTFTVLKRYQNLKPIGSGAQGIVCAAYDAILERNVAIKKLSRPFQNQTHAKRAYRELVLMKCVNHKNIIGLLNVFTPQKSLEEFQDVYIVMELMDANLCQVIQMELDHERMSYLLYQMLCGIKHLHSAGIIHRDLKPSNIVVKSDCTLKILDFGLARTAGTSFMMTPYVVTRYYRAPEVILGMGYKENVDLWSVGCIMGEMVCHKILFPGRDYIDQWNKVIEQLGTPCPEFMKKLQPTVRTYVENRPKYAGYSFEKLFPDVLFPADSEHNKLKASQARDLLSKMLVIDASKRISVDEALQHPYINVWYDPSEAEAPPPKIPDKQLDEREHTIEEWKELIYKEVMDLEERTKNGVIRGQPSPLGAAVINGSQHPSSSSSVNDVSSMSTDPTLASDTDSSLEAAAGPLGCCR
Observed: enzyme activity
Action: inhibitor
Concentration: 0.5 µM
Relative to: control
Structure (SMILES)	remaining activity [%]
O=C1Cc2c([nH]c3ccc(Br)cc23)-c2ccccc2N1	87.5
Oc1cccc(-c2nc(N3CCOCC3)c3oc4ncccc4c3n2)c1	89.8
CCCCc1c(-c2ccc(OC)cc2)[nH]c2nccnc12	74.5
O=C1Nc2ccccc2/C1=C\c1c(Cl)[nH]c2ccccc12	93.5
O=Nc1c(-c2c(O)[nH]c3cc(Br)ccc23)[nH]c2ccccc12	98.7
Cc1cc(Nc2cc(N3CCN(C)CC3)nc(Sc3ccc(NC(=O)C4CC4)cc3)n2)[nH]n1	95.4
CN1CCN(c2ccc3nc(-c4c(N)c5c(F)cccc5[nH]c4=O)[nH]c3c2)CC1	106
CN(C)S(=O)(=O)c1ccc2c(c1)/C(=C/c1cc3c([nH]1)CCCC3)C(=O)N2	91.1
O=C1NC(=O)c2c1c1c3ccccc3[nH]c1c1[nH]c3cc(Br)ccc3c21	85.2
O=c1cc(N2CCOCC2)oc2c(-c3ccccc3)cccc12	106
COc1ccc(COc2ccc(Cc3cnc(N)nc3N)cc2OC)cc1	91.9
O=C(c1cc2cc(O)ccc2[nH]1)c1cc2cc(O)ccc2[nH]1	112
Cc1ccc(S(=O)(=O)/C=C/C#N)cc1	74.7
c1ccc(-c2n[nH]c3c2oc2ccccc23)cc1	79.6
N#Cc1cnc2cnc(NCc3cccnc3)cc2c1Nc1ccc(F)c(Cl)c1	110
COc1cccc(-c2cc(=O)c3ccccc3o2)c1N	95.3
COc1ccc2c(c1)c(C1=C(c3c[nH]c4ccccc34)C(=O)NC1=O)cn2CCCN(C)C	80
c1ccc2c(-c3ccncc3)c[nH]c2c1	100
O=C1NC(=O)c2c1c1c3ccccc3[nH]c1n1cncc21	83.9
CCCNC(=O)Nc1ccc(Oc2ncnc3cc(OC)c(OC)cc23)cc1Cl	107
O=C1Nc2ccc(Br)cc2/C1=C/c1cc2c([nH]1)CCCC2	107

Set 2
Cell line: mouse MPNST tumor cells
Technique: high-content nuclear imaging
Measured: cell number
Concentration: 10 µM
Time: 12 h
Notes: mean of 2 replicates
Relative to: plate mean
Reading: higher = more cells
Structure (SMILES)	nuclei count
C[C@H](NCc1ccc(OCc2ccccc2F)cc1)C(N)=O	2.38 z-score
OC1(c2ccc(Cl)cc2)CCN(Cc2c[nH]c3ccccc23)CC1	-6.03 z-score
CCN(Cc1ccccc1)C(=O)Cn1c(=O)n(C)c2cnc(-c3ccccc3)nc21	3.3 z-score
COc1cc(C#N)ccc1S(=O)(=O)Nc1ccc2c(c1)cc(C)c(=O)n2C	1.15 z-score and 0.682 z-score
CC[N+](C)(C)c1cccc(O)c1	3.64 z-score
Cc1ccc(C(=O)c2ccc(CC(=O)O)n2C)cc1	0.491 z-score
Cc1ccc(Nc2nccc(N(C)c3ccc4c(C)n(C)nc4c3)n2)cc1S(N)(=O)=O	-1.11 z-score
CNCCCC1c2ccccc2C=Cc2ccccc21	-3.5 z-score
CC(C)c1c(NC(=O)Nc2ccc(Cl)cc2)c(=O)n(-c2ccccc2)n1C	1.12 z-score
O=S(=O)(NC1CCCCC1)c1ccc2c(c1)C(=NO)c1cc(S(=O)(=O)NC3CCCCC3)ccc1-2	-3.87 z-score
CC/C(=C(\c1ccccc1)c1ccc(OCCN(C)C)cc1)c1ccccc1	-7.33 z-score and -5.57 z-score
O=C1NCCc2[nH]c(-c3ccncc3)cc21	-4.16 z-score
c1ccc(CC2=NCCN2)cc1	-0.0553 z-score and 0.85 z-score
O=C(Nc1ccccc1C(=O)NC1CCCCNC1=O)c1cc2ccccc2s1 (stereo not shown)	2.39 z-score

Set 3
Structure (SMILES): CCS(=O)(=O)c1cc2cc(C[C@@](O)(CC(C)(C)c3ccc(F)cc3C(N)=O)C(F)(F)F)[nH]c2cn1
Observed: cell-free assay
Technique: competition with immobilised ligand
Concentration: 1 µM
target	remaining binding [%]
CAMK1G (Homo sapiens, UniProt Q96NX5)	100
CLK3 (Homo sapiens, UniProt P49761)	100
PKN1 (Homo sapiens, UniProt Q16512)	85
PIK3CD (Homo sapiens, UniProt O00329)	90
DCLK3 (Homo sapiens, UniProt Q9C098)	100
PRKCE (Homo sapiens, UniProt Q02156)	100
HUNK (Homo sapiens, UniProt P57058)	100
PIK3CB (Homo sapiens, UniProt P42338)	87
ERBB3 (Homo sapiens, UniProt P21860)	100
MAP2K2 (Homo sapiens, UniProt P36507)	67
PRKAA2 (Homo sapiens, UniProt P54646)	100
PIK3C3 (Homo sapiens, UniProt Q8NEB9)	96
TNK2 (Homo sapiens, UniProt Q07912)	100
PRKG1 (Homo sapiens, UniProt Q13976)	89
CSNK1G2 (Homo sapiens, UniProt P78368)	95
TTK (Homo sapiens, UniProt P33981)	78
MST1R (Homo sapiens, UniProt Q04912)	85
FGFR4 (Homo sapiens, UniProt P22455)	100
MAP2K6 (Homo sapiens, UniProt P52564)	84
eIF-2-alpha kinase GCN2, C-terminal kinase domain (EIF2AK4, Homo sapiens, UniProt Q9P2K8, S808G)	94
MAP2K1 (Homo sapiens, UniProt Q02750)	68
RIPK1 (Homo sapiens, UniProt Q13546)	92
TSSK3 (Homo sapiens, UniProt Q96PN8)	96
CDK14 (Homo sapiens, UniProt O94921)	100

Set 4
Target: DNA polymerase theta, ATPase domain (POLQ, Homo sapiens, UniProt O75417)
Chain of UniProt O75417 (whole entry, unmodified, looked up): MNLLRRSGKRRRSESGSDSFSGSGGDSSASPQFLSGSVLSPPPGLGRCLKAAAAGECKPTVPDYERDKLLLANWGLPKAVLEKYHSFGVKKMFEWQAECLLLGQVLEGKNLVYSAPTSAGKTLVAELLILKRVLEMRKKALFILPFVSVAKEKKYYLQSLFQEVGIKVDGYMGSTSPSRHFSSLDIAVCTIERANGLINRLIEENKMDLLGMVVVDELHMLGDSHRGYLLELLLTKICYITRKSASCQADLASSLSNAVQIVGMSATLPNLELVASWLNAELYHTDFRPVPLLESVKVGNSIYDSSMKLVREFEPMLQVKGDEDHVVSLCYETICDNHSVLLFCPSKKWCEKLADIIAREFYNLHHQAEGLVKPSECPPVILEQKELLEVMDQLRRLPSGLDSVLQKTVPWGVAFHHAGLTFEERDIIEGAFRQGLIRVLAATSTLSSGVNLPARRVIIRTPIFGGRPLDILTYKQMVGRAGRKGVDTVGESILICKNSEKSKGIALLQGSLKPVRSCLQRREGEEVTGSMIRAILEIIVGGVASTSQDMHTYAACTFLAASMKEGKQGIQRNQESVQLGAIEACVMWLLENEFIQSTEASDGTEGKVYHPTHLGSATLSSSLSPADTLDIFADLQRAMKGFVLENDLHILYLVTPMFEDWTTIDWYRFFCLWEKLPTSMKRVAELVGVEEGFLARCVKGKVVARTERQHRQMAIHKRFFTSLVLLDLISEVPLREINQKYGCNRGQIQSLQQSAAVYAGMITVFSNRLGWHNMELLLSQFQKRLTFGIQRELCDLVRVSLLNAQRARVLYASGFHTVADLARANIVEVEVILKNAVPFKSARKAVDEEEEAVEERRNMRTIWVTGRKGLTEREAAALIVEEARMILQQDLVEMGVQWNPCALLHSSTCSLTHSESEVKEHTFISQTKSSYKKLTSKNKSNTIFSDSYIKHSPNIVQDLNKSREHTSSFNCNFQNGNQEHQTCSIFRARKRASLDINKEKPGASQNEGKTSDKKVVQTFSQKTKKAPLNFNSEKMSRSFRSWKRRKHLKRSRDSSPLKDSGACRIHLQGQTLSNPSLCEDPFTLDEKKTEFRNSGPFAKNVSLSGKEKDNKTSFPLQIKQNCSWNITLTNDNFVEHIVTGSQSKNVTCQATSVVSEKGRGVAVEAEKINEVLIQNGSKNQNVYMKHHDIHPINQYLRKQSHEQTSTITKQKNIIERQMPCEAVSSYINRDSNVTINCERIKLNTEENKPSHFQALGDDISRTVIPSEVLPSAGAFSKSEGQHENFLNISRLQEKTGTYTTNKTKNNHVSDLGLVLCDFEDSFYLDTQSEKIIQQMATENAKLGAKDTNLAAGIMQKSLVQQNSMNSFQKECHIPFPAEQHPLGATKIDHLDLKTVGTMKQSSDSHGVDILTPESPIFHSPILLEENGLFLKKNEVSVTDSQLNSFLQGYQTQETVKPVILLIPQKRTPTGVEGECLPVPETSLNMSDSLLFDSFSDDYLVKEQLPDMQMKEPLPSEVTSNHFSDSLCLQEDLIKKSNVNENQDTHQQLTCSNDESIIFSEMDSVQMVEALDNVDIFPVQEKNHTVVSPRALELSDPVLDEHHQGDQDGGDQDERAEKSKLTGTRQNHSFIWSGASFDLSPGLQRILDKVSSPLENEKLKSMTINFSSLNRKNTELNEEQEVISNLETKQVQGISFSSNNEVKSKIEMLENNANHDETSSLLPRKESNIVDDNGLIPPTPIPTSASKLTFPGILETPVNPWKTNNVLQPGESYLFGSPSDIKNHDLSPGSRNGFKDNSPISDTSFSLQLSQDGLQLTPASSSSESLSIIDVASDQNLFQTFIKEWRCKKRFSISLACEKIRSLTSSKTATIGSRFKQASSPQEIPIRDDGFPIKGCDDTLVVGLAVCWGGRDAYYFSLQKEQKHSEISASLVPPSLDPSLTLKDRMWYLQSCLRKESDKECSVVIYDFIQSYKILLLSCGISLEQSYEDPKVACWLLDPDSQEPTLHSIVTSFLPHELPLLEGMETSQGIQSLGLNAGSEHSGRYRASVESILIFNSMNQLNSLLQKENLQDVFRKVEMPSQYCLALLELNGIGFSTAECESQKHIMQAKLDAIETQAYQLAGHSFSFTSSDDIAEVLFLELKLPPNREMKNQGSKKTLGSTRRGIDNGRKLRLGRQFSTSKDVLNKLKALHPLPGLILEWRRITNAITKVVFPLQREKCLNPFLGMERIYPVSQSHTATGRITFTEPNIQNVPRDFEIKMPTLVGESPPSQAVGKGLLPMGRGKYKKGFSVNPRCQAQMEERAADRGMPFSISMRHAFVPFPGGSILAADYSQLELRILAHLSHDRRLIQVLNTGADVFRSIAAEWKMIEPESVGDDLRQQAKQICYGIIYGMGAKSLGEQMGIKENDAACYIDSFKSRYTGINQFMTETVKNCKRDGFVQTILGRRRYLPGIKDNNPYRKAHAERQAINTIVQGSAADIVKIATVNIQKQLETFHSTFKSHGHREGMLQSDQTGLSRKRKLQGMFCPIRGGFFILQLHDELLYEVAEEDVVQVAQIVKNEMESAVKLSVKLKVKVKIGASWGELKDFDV
Observed: enzyme activity
Action: inhibitor
Concentration: 77 µM
Relative to: untreated
SMILES	remaining activity
C[C@]12C=CC(=O)C=C1CC[C@@H]1[C@@H]2[C@@H](O)C[C@@]2(C)[C@H]1CC[C@]2(O)C(=O)CO	99.6% and 75.5%
COc1cccc(-c2cc(F)ccc2C2Cc3nc(N)nc(C)c3C(=O)N2)n1 (stereo not shown)	95.8%
C[C@H](NC(=O)Cc1cc(F)cc(F)c1)C(=O)N[C@H](C(=O)OC(C)(C)C)c1ccccc1	95.5%
CC(C)Cc1ccc([C@H](C)C(=O)O)cc1	99.9%
COc1ccc(S(=O)(=O)N(CCO)c2ccccc2CN(C)C/C=C/c2ccc(Cl)cc2)cc1	100%
NC[C@H]1CC[C@H](C(=O)O)CC1	105%
CCOc1nc2cccc(C(=O)O)c2n1Cc1ccc(-c2ccccc2-c2nnn[nH]2)cc1	86.3%
COc1ccc([C@@H]2CC(=O)c3c(O)cc(O)cc3O2)cc1O	94.1% and 98.9%
COc1ccc(CCc2nc3cc(-c4c(C)noc4C)ccc3n2C[C@H](C)N2CCOCC2)cc1Cl	101%
CNC(=O)c1ccc(C)c(-n2c(C)cc(OCc3ccc(F)cc3F)c(Br)c2=O)c1	95.4%
C[C@@H]1CCO[C@H]2Cn3cc(C(=O)NCc4ccc(F)cc4F)c(=O)c(O)c3C(=O)N12	99.5%
NC1=N[C@@]2(c3cc(NC(=O)c4ccc(F)cn4)ccc3F)COC[C@H]2CS1	95.6%
CN1C(=O)C(c2c[nH]c3ccccc23)=C(c2c[nH]c3ccccc23)C1=O	95.8%
Nc1ccc(S(=O)(=O)Nc2ccccn2)cc1	98.8%
CC[C@H]1CN2CCc3cc(OC)c(OC)cc3[C@@H]2C[C@@H]1C[C@H]1NCCc2cc(OC)c(OC)cc21	100% and 103%
Nc1cc(-c2ccncc2)c[nH]c1=O	97.5%
C[C@@H]1C[C@H]2[C@@H]3CCC4=CC(=O)C=C[C@]4(C)[C@@]3(F)[C@@H](O)C[C@]2(C)[C@@]1(O)C(=O)CO	101%

Repeated from above (set 2):
Structure (SMILES)	nuclei count
COc1cc(C#N)ccc1S(=O)(=O)Nc1ccc2c(c1)cc(C)c(=O)n2C	1.15 z-score and 0.682 z-score
CC[N+](C)(C)c1cccc(O)c1	3.64 z-score
Cc1ccc(C(=O)c2ccc(CC(=O)O)n2C)cc1	0.491 z-score
Cc1ccc(Nc2nccc(N(C)c3ccc4c(C)n(C)nc4c3)n2)cc1S(N)(=O)=O	-1.11 z-score
CNCCCC1c2ccccc2C=Cc2ccccc21	-3.5 z-score
CC(C)c1c(NC(=O)Nc2ccc(Cl)cc2)c(=O)n(-c2ccccc2)n1C	1.12 z-score
